Published values from different studies.
Each numbered part is a random draw from the data of one study; scales do not carry over between parts. Positions count from the first letter of the parent shown.

Series 1
Target: Fragile X messenger ribonucleoprotein 1, C-terminal low-complexity region (Fmr1, Mus musculus, UniProt P35922)
Method: RNA Bind-n-Seq
Molecule type: RNA
Sample: in vitro
Concentration: 200 nM
Notes: whole 134-nt RNA, ends assumed
Together with: 150 mM LiCl
Reference: input library
Reading: higher = stronger binding
All molecules: 7-deaza-guanosine replaces G
`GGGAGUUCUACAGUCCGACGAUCAGUCCUGUGCUACACAUCGUAUGUACCGAAUCGGGGUGGGGAAAAAGGGGAAAGGGGAAAGUAUUAUGUUACGCCGUUCGGAUCUGCACUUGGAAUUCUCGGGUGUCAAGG` has a log2 enrichment of 0.00415.
The log2 enrichment of `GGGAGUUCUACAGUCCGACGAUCGUCCUGUGCUACACAUCGUAUGUACCGAAUCGGGGAGGGGAAAAAAAGGGGUUUGGGGAAAGUAUUAUGUUACGCCGUUCGGAUCUGCACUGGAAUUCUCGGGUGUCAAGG` is reported as -0.483.
`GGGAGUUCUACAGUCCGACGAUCAAGUCCUGUGCUACACAUCGUAUGUACCGAAUCGGGUUUUUGGGAGGGAAAAAGGGAAAGUAUUAUGUUACGCCGUUCGGAUCUGCACUUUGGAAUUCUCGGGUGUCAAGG` gave a log2 enrichment of -0.759.
`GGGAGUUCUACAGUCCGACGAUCUACAUUCUUUACCCCUUGUUUUAAUUUGAACCCCACCAUAUGGAUUUUUUUCCUUAAGAAAAUCUCCUUUUAGGAGAUCAUGGUGUCACAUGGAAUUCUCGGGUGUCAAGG` gave a log2 enrichment of 1.27.
`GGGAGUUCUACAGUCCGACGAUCCCUGUGCUACACAUCGUAUGUACCGAAUCGGGGAAAAAGGGGAAAAAGGGGUUUUUGGGGAAAGUAUUAUGUUACGCCGUUCGGAUCUGCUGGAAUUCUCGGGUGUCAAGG` gave a log2 enrichment of 0.111.
For `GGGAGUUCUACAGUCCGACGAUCGUCCUGUGCUACACAUCGUAUGUACCGAAUCGGGGUUUUUGGGGAAAGGGGUUUGGGGAAAGUAUUAUGUUACGCCGUUCGGAUCUGCACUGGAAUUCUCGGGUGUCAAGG`, the log2 enrichment was -1.08.
The log2 enrichment of `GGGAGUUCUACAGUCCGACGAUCCAAGUCCUGUGCUACACAUCGUAUGUACCGAAUCGGUUUUUGGUUUGGUUUUUGGAAAGUAUUAUGUUACGCCGUUCGGAUCUGCACUUCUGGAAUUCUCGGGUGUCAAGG` is reported as -1.81.
`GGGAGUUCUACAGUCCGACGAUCGCAGGAAAAAAAAACAAAUGGAAAUGCUUCGGAUAGUGGCAGGGGUGGGGGUUGCUAAGGAAAGGGUGGGAUGGGAGUGGGUAAAGAGUUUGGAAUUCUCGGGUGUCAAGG` has a log2 enrichment of 1.67.
`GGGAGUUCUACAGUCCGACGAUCCAAGUCCUGUGCUACACAUCGUAUGUACCGAAUCGGGUUUGGGGUUUGGUUUGGGAAAGUAUUAUGUUACGCCGUUCGGAUCUGCACUUCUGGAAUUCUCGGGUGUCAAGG` gave a log2 enrichment of -1.5.
`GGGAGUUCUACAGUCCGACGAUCUCAAGUCCUGUGCUACACAUCGUAUGUACCGAAUCGGGAAAAAGGGAGGGUGGGAAAGUAUUAUGUUACGCCGUUCGGAUCUGCACUUCCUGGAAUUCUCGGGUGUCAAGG` has a log2 enrichment of -1.16.
For `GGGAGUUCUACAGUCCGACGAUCUCAAGUCCUGUGCUACACAUCGUAUGUACCGAAUCGGGAAAGGAAAGGGAAAGGGAAAGUAUUAUGUUACGCCGUUCGGAUCUGCACUUCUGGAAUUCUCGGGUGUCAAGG`, the log2 enrichment was -0.971.

Series 2
Target: RNA binding protein fox-1 homolog 2, RRM domain, GST-SBP tag (RBFOX2, Homo sapiens, UniProt O43251-10, residues 100-194)
Method: RNA Bind-n-Seq
Molecule type: RNA
Sample: in vitro
Concentration: 365 nM
Notes: natural RNA segment, single round, ends assumed
Reference: no-protein control
Reading: higher = stronger binding
Construct (chain): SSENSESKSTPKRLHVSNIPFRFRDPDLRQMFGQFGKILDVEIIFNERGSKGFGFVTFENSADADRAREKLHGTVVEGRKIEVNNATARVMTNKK
`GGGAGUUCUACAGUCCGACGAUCCUAUAGUAUACAGUAGGUUAAGACUCAUGUCUAUGACUUUCACUCUAAGACUGGCAAAAGGACAGCAGUCUUCUAUGUUUAGUCAAUAUUCAUUUCAGUAGAAGAUAAUCUGGAAUUCUCGGGUGCCAA` — result for “RBNS enrichment (R)”: 0.385.
`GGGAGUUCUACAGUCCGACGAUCCAAGCGUGGACUCUUGUCUCACCUCAUCAAUUAUUCUGUGAUGUUGAAUCAGGAUUCUAAAGGCUAGCUUUUUUCAGUAGAAGACCCUUGUACCCACGAUUAGAAAAGACUGGAAUUCUCGGGUGCCAA` — result for “RBNS enrichment (R)”: 0.289.
`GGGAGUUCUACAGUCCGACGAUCUCAGAUGCAGUGAGGAGCACUGAGUCCUUUGCAAUGUUUUCAGCCAUAGACCUUUGGGUCUGCCUGGACUGUAUGUGGAUGUGUGCGUGUGUUGUGACACGGGACAACACUGGAAUUCUCGGGUGCCAA` — result for “RBNS enrichment (R)”: 0.675.
For `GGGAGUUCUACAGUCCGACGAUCCUGAUAGUUUCUUUCUUUCAUAUCACAUGUAUAGAGAAAUAAUUAUAUCAGAAACUCACAAACCUAGACAUGGAAAAACAGAUUACUGUCUAUUGUCAGCAUCAUUUUCAUGGAAUUCUCGGGUGCCAA`, “RBNS enrichment (R)” read 0.283.
`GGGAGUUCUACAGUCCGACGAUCUUCUGUCCUGAAAGCUUUGCCUCUUUCUUGGCAAAGUUUCUGGUAUGGUCAAGCUUGUAAAUAACCUUUUUUACAUUUUAAUCUUUUCCAUUAAUUAAGAGGUUGAAAAGUGGAAUUCUCGGGUGCCAA`: “RBNS enrichment (R)” 0.263.
Under “RBNS enrichment (R)”, `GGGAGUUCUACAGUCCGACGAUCUUGUAAAUGGCAGUGGAGACUAUGGUGUUCCUGAGGGGCAAUGGCAGGUCACUCUCCCGAUCUCCCUACUACCAGCCAGGUGCUGUUUCCUUCUGAGCUGUGGAGAUCACUGGAAUUCUCGGGUGCCAA` is recorded as 0.526.
`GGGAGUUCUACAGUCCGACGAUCACUUGUAUUCUUAAAAUUGGAGGCUAGUUAUUUUGUCAAAUGCAUGUAAUGAACAGACCCGAAGGAAUCCUCCACACACAAGCCAGGGAACACCAACUGGAAAGGUACCCUGGAAUUCUCGGGUGCCAA`: “RBNS enrichment (R)” 3.73.
`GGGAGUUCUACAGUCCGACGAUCAGGUGUUGACAAGAUCCACCAUCUGUAAUGUCCUUGGCACAAUAAAACCAAAUGUCAGUUUCCCUGAGCAACUCUAUUCUGUGUGGGACACGGGUGGAUGGGCCUCUGGGUGGAAUUCUCGGGUGCCAA`: “RBNS enrichment (R)” 0.327.
For `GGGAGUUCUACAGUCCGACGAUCAGCUCUGUCUCCCCACUCUUGCUGUUGUGUUGUCCUUGUGAAUGUAUGGCUGACCCACUCCAGGCCAAGCAGCUUAACAGCAGGCUUGCUGUUAAGUCCCAAGUCCGUCAUGGAAUUCUCGGGUGCCAA`, “RBNS enrichment (R)” read 1.09.
For `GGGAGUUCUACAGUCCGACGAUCGGGUAAAGACGAGGGGUCAGGGUUCAACUUGACAGUGUACUUCGCUAGGAAGGAGAGGCCCUUGCCUGCUAUAACCAUGCCUAGAGUGCCUGUCCUCCAGUAUUGCACCUUGGAAUUCUCGGGUGCCAA`, “RBNS enrichment (R)” read 0.254.
For `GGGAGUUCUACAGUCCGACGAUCUGGCUAUUCAGGGAAAUUACUCUCUACCUCCCCAUGACAUGGAUGAUAAGUGUUGAGGGAUGAACACUCUGGAAACUCUUAGCAUGGAUUUUGAAUUCCAGAUUUCUUUAUGGAAUUCUCGGGUGCCAA`, “RBNS enrichment (R)” read 2.83.
For `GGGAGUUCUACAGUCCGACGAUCGACAAGCAGCAUCUGUCCCCCCCAGAGCCAUCUAGCUACUGACACUGCCCCCAGCUUUGCUUCUCACCAGCUCAUUAGGGCUCCCAGGUUAAAGUCCUUCAGUAUUUAUGUGGAAUUCUCGGGUGCCAA`, “RBNS enrichment (R)” read 0.873.

Series 3
Target: Interferon regulatory factor 5, full length, phosphomimetic (IRF5, Homo sapiens, UniProt Q13568-2, residues 1-514, K96S/S451D/S453D/S456D/S462D)
Method: protein-binding microarray
Molecule type: double-stranded DNA, one strand shown
Sample: in vitro
Concentration: 250 nM
Notes: 60-bp whole probe
Together with: salmon DNA 0.4 mg/ml
Reference: random background probes
Reading: higher = stronger binding
All sequences stand within: GCCTAGCAC … GTCTTGATTCGCTTGACGCTGCTG
`TGTTTTTTGGTTTCTGGTTTGTGCTAG` has a log fluorescence of 4.02 z-score.
`GACGGAGTGGACTATCGGGACGTGCTA` gave a log fluorescence of 0.95 z-score.
For `TTAGGTACCGGTCTCGGTTAGTGCTAG`, the log fluorescence was 0.342 z-score.
For `CATTTTCTCTTATTCTAACAGTGCTAG`, the log fluorescence was 2.59 z-score.
For `AACGGACTGCTTCTCCTGACGTGCTAG`, the log fluorescence was -0.566 z-score.
With `TTAGATTTCAGTATCGAGTAGTGCTAG` the log fluorescence was 5.19 z-score.
The log fluorescence of `GACGCTTTCAGTCTCGAGACGTGCTAG` is reported as 3.93 z-score.
With `TTGTTTTTCATCATTGCCTAGTGCTAG` the log fluorescence was 2.01 z-score.
The log fluorescence of `CTTTTTTTCAAGAAACAGTTCGTGCTA` is reported as 0.98 z-score.
`TCATTTTTCTCAACCGTACTGTGCTAG` has a log fluorescence of 1.17 z-score.
The log fluorescence of `TTAGGTTTCGGGTTTCCGTTAGTGCTA` is reported as 8.53 z-score.
With `TTAGGTTTCCTTTCCCGTTAGTGCTAG` the log fluorescence was 1.27 z-score.
The log fluorescence of `TTAGGTATCGACTTGCGGTTAGTGCTA` is reported as 4.09 z-score.
For `TTAGGTTTCGGGACTGGGTAAGTGCTA`, the log fluorescence was 6.37 z-score.
`TTAGGACTGGATATCGGTTAGTGCTAG` gave a log fluorescence of 2.38 z-score.
The log fluorescence of `TTAGGTTCCGGTTTCGGCTAGTGCTAG` is reported as 6.79 z-score.

Series 4
Target: ABI1, truncated, D143A, DHFR fusion (Arabidopsis thaliana)
Method: DHFR PCA, deep sequencing
Sample: yeast
Notes: methotrexate growth selection, single substitutions
Together with: (+)-ABA 1.4 µM
Reference: wild-type fitted maximum
Reading: higher = stronger binding
Parent: PYL1, truncated, DHFR fusion (Arabidopsis thaliana); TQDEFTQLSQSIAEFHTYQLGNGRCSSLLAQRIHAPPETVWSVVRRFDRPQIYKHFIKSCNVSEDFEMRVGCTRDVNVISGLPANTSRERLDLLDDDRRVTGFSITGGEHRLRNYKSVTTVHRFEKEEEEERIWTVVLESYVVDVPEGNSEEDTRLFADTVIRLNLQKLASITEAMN
For `P37W`, “relative binding score” read -7.82%.
`R113Q` — result for “relative binding score”: 74.4%.
Under “relative binding score”, `E4V` is recorded as 72.6%.
For `T119H`, “relative binding score” read -2.18%.
`F157C` — result for “relative binding score”: 2.97%.
`K54E`: “relative binding score” -3.21%.
`H16M` — result for “relative binding score”: 10.8%.
Under “relative binding score”, `V137D` is recorded as -0.873%.
`Q10P`: “relative binding score” 60.3%.
Under “relative binding score”, `V70E` is recorded as 31.4%.
`G108I` — result for “relative binding score”: -8.55%.
